Published values pooled from the literature.
Compare with care: the assays were run in different laboratories. Values joined by “and” are separate records of one study, mostly repeats; a detail may differ. ± marks the error that the study gave.
AURKA: Aurora kinase A (AURKA, Homo sapiens, UniProt O14965)
UniProt O14965, sequence (whole entry, looked up): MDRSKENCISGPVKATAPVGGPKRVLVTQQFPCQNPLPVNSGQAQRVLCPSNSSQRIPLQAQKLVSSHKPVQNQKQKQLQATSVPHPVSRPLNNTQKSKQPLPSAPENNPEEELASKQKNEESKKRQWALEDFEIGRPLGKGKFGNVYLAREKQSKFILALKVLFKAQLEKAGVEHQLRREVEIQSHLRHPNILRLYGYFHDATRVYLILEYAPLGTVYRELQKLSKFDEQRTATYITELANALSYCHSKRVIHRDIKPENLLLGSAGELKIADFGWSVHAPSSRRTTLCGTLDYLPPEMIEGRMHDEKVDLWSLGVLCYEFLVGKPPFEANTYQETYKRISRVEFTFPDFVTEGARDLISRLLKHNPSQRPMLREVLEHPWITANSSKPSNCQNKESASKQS
RORC: Nuclear receptor ROR-gamma (RORC, Homo sapiens, UniProt P51449)
UniProt P51449, sequence (whole entry, looked up): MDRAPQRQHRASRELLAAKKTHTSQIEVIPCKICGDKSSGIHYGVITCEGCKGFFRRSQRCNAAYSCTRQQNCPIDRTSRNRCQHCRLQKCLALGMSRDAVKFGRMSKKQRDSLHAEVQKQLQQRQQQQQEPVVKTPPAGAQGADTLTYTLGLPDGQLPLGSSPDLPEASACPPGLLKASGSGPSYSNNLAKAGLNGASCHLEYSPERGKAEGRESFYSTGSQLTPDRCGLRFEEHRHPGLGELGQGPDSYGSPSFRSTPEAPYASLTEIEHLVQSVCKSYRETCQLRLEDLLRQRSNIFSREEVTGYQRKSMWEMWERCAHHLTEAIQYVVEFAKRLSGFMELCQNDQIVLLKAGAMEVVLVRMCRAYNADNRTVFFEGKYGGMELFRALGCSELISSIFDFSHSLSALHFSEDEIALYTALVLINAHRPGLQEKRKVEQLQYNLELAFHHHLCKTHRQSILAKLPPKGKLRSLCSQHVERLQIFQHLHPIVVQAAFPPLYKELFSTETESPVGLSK
Thiamine transporter ThiT: Thiamine transporter ThiT (Lactococcus lactis subsp. cremoris, UniProt A2RI47)
UniProt A2RI47, sequence (whole entry, looked up): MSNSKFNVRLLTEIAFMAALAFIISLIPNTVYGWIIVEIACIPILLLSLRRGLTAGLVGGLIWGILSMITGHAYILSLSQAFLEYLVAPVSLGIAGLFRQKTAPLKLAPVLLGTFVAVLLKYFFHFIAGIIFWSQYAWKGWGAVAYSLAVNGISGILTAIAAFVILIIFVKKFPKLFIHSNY
dxs: 1-deoxy-D-xylulose-5-phosphate synthase (dxs, Deinococcus radiodurans, UniProt Q9RUB5)
UniProt Q9RUB5, sequence (whole entry, looked up): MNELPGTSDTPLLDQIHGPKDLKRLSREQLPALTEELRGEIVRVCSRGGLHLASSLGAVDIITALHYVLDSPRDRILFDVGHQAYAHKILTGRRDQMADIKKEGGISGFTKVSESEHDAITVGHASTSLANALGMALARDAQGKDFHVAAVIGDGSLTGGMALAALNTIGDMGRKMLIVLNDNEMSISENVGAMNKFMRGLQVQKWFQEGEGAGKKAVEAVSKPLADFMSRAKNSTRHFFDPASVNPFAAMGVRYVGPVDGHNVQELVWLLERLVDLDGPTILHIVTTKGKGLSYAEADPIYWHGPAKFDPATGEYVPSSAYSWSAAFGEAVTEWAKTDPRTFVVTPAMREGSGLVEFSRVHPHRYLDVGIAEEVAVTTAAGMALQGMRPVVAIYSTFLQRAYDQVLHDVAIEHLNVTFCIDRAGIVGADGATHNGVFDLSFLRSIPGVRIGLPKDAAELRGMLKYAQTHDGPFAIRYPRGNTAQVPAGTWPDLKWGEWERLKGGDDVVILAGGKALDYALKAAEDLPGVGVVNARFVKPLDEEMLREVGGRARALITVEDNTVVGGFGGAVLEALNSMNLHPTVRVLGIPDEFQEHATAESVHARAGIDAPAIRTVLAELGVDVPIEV
UniProt P08172, sequence (whole entry, looked up): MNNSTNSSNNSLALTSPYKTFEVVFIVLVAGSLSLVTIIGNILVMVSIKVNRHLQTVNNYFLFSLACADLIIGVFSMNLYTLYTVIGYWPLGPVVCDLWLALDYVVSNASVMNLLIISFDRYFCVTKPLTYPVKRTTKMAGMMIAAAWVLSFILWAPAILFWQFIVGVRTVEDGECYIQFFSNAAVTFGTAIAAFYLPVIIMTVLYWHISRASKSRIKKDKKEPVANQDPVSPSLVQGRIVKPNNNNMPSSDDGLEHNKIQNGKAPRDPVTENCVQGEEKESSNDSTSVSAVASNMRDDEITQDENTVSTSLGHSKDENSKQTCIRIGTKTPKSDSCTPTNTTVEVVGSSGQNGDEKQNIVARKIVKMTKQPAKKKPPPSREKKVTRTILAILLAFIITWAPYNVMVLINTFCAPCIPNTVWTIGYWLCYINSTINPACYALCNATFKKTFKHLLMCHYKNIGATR
UniProt P12830, sequence (whole entry, looked up): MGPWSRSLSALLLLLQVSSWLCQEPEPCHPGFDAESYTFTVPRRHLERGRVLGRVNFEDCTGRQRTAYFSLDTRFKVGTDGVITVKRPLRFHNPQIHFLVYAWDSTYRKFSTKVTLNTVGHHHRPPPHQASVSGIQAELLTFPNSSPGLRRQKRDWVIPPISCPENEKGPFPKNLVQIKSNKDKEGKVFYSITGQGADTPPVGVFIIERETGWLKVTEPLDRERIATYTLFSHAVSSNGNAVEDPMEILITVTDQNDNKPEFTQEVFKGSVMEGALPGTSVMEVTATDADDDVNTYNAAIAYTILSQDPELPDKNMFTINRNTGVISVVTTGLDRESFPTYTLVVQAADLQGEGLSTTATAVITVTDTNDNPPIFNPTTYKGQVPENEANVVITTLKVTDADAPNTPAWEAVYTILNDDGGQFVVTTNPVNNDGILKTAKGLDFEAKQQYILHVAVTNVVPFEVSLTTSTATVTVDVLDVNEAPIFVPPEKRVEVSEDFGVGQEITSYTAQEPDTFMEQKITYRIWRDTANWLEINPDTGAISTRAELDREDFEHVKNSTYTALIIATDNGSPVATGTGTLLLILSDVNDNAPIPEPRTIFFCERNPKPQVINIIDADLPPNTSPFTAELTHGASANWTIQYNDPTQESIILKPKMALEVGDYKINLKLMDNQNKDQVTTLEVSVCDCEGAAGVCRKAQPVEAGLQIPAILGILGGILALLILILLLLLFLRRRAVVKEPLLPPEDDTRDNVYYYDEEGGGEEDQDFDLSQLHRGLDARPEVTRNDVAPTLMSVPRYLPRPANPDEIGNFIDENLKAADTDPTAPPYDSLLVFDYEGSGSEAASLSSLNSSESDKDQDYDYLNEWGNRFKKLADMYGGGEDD
UniProt P19438, sequence (whole entry, looked up): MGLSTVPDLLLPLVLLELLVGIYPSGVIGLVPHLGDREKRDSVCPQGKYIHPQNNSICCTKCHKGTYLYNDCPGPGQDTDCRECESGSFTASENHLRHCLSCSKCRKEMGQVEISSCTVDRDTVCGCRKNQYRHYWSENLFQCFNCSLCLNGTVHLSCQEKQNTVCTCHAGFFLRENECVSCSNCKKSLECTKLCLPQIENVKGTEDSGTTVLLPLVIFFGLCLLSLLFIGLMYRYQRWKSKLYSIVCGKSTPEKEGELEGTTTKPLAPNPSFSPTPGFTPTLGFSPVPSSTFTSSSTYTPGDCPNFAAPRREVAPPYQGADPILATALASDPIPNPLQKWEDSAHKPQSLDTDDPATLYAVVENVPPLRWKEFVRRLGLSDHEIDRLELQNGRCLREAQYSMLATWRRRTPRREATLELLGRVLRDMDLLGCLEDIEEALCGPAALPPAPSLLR
UniProt Q7RTX0, sequence (whole entry, looked up): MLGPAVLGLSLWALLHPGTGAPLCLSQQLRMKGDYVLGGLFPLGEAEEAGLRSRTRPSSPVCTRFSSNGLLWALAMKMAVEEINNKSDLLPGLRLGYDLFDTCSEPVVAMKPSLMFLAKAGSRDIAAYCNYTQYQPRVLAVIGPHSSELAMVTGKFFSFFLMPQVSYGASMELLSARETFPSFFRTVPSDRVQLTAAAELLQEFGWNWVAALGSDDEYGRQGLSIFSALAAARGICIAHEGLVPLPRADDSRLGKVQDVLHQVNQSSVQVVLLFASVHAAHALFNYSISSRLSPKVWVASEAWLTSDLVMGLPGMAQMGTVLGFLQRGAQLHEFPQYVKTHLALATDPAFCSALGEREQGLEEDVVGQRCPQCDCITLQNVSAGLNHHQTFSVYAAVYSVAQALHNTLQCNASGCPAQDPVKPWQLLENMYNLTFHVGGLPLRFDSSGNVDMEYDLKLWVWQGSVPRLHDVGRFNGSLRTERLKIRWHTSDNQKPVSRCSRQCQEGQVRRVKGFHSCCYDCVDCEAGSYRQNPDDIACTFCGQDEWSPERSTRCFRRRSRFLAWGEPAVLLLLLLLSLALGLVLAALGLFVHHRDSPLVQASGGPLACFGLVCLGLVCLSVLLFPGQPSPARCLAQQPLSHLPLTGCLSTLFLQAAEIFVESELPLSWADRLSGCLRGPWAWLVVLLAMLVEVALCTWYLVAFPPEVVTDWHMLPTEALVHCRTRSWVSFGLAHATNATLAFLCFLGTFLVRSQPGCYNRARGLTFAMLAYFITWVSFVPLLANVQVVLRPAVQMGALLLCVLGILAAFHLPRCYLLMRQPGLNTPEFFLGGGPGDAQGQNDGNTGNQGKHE
UniProt O43918, sequence (whole entry, looked up): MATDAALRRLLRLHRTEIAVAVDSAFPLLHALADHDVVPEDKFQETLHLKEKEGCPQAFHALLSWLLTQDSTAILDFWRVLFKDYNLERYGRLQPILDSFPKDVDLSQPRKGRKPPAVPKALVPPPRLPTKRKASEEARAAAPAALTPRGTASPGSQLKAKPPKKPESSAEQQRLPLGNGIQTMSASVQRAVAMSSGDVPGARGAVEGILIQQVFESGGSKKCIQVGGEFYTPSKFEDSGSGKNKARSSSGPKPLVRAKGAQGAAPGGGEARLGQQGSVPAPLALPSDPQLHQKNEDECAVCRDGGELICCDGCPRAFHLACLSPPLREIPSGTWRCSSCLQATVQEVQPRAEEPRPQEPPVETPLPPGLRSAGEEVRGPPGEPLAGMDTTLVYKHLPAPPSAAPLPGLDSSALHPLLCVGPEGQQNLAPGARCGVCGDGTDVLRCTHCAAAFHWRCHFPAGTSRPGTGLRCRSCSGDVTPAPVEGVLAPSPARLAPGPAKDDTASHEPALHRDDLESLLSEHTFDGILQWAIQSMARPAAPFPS

SMILES	target	test	test system	conditions	Kd
O=C1c2ccc(O)cc2-c2c(-c3ccc(O)cc3)oc3cc(O)cc1c23	Heat shock protein HSP 90-alpha, middle domain (HSP90AA1, Homo sapiens, UniProt P07900)	binding, fluorescence polarization	–	middle domain fragment	0.13 µM
Cc1[nH]c2c(O)c3c(c(O)c2c1C(=O)NC1CCNCC1)C(=O)c1ccccc1C3=O	AURKA	binding, BLI	–	–	32.4 µM
COc1cc2c(c(OC)c1OC)-c1c(cc3c(c1OC)OCO3)CC(C)C(C)(O)C2OC(=O)c1ccccc1 (stereo not shown)	Taste receptor type 1 member 3 (TAS1R3, Homo sapiens, UniProt Q7RTX0)	binding	0.5% DMSO	–	0.000902 µM
C[C@H](N)C(=O)N[C@@H](CCCNC(=N)N)C(=O)N[C@H](C(=O)N[C@@H](CCCCN)C(=O)N[C@@H](CCC(N)=O)C(=O)N[C@H](C(=O)N[C@@H](C)C(=O)N[C@@H](CCCNC(=N)N)C(=O)N[C@@H](CCCCN)C(=O)N[C@@H](CO)C(=O)N[C@H](C(=O)NCC(=O)O)[C@@H](C)O)[C@@H](C)O)[C@@H](C)O	WDR5 (Homo sapiens, UniProt P61964)	binding, ITC	–	pH 8	10.6 µM
COc1ccccc1CNC(=O)CCn1c(=O)[nH]c2ccsc2c1=O	Heat shock protein 90, N-terminal domain (Plasmodium falciparum, UniProt Q8IC05)	binding, SPR	–	–	13.5 µM and > 10 µM
CCOc1cccc([C@@H]2CC(=O)Nc3c2c(C)nn3-c2ccc3nncn3n2)c1	DDB1 (Homo sapiens, UniProt Q16531)	binding, SPR	–	–	2 µM
N[C@@H](CN[C@@H](CN[C@@H](CC(=O)O)C(=O)O)C(=O)O)C(=O)O	Zn2+	binding, PAR competition	–	3 h, pH 7.5, 25 °C	0.0001 ± 2e-05 µM
C[C@H](CCC(=O)NCCC(c1ccccc1)c1ccccc1)[C@H]1CC[C@H]2[C@@H]3CC[C@@H]4CC(=O)CC[C@]4(C)[C@H]3CC[C@]12C	RORC	binding, MST	–	–	0.0572 µM
COC(=O)CC[C@H](NC(=O)[C@H](C)NC(=O)[C@@H](C)O[C@H]1[C@H](O)[C@@H](CN)OC(O)[C@@H]1NC(C)=O)C(N)=O (stereo partly shown)	NOD2 (Homo sapiens, UniProt Q9HC29)	binding, SPR	–	pH 6.5	0.012 to 0.024 µM
CCCC[C@@H]1NC(=O)[C@H](Cc2ccc(O)cc2)NC(=O)[C@@H]2CCCN2C(=O)[C@H](CC(=O)O)NC(=O)[C@H](C)NC(=O)[C@H](Cc2ccccc2)NC(=O)[C@@H]2CSCCC(=O)N3CN(CN(C3)C(=O)CCSC[C@@H](C(=O)N[C@@H](C)C(N)=O)NC1=O)C(=O)CCSC[C@H](NC(C)=O)C(=O)N[C@@H](CC(C)(C)C)C(=O)N1CCC[C@H]1C(=O)N[C@@H](CCC(=O)O)C(=O)N[C@H](CCCCNC(=O)CCc1cn(CCOCCOCCOCCN(CCOCCOCCOCCC(=O)N[C@H]3CSCCC(=O)N4CN5CN(C4)C(=O)CCSC[C@H](NC(=O)[C@@H](CC(=O)O)NC(=O)[C@H](Cc4cccc6ccccc46)NC(=O)[C@@H]4CCCN4C3=O)C(=O)N[C@@H](CCSC)C(=O)N[C@@H](CCCCNC(=N)N)C(=O)N[C@@H](CC(=O)O)C(=O)N[C@@H](Cc3c[nH]c4ccccc34)C(=O)N[C@@H](CO)C(=O)N[C@@H]([C@@H](C)O)C(=O)N3CCC[C@H]3C(=O)N3C[C@H](O)C[C@H]3C(=O)N[C@@H](Cc3c[nH]c4ccccc34)C(=O)N[C@H](C(N)=O)CSCCC5=O)CCOCCOCCOCCn3cc(CCC(=O)NCCCC[C@H]4NC(=O)[C@H](CCC(=O)O)NC(=O)[C@@H]5CCCN5C(=O)[C@H](CC(C)(C)C)NC(=O)[C@@H](NC(C)=O)CSCCC(=O)N5CN6CN(C5)C(=O)CCSC[C@H](NC(=O)[C@H](Cc5ccc(O)cc5)NC(=O)[C@@H]5CCCN5C4=O)C(=O)N[C@@H](Cc4ccccc4)C(=O)N[C@@H](C)C(=O)N[C@@H](CC(=O)O)C(=O)N4CCC[C@H]4C(=O)N[C@@H](Cc4ccc(O)cc4)C(=O)N[C@@H](CCCC)C(=O)N[C@H](C(=O)N[C@@H](C)C(N)=O)CSCCC6=O)nn3)nn1)C(=O)N1CCC[C@H]1C(=O)N[C@@H](Cc1ccc(O)cc1)C(=O)N2	CD137, rat	SPR	–	together with: captured on human Nectin-4	no binding
O=C1c2ccccc2C(=O)c2c1c(O)c1nc(Cc3ccccc3)[nH]c1c2O	AURKA	binding, BLI	–	–	26 µM
Cc1ncc(Cc2csc(C=NNC(=O)Cc3cccs3)c2C)c(N)n1 (mixture of isomers)	Thiamine transporter ThiT	binding, ITC	–	–	5.3 µM
CN(C)CCNC(=O)c1cccc2c(NCCCCc3c(N)nc(N)nc3N)c3ccccc3nc12	human cardiac troponin T pre-mRNA 18-nt fragment	binding, ITC	–	25 °C	334 ± 11 µM
CC(=O)N[C@H]1CSSC[C@@H](C(N)=O)NC(=O)[C@H](C(C)C)NC(=O)[C@H](C)NC(=O)[C@H](Cc2c[nH]cn2)NC(=O)[C@H](CO)NC1=O	CDH1, EC1 domain (Homo sapiens, UniProt P12830)	binding, HSQC NMR titration	EC1 domain	–	5 to 10 µM
C[n+]1ccc(/C=N/NC(=O)c2cccc(C(=O)N/N=C/c3cc[n+](C)c4ccccc34)n2)c2ccccc21	MYC promoter G4 DNA	binding, native ESI-MS	100 mM trimethylammonium acetate	1 mM KCl	0.053 µM
Cc1ncc(Cc2csc(C=NNC(=O)[C@@H](N)Cc3ccc(O)cc3)c2C)c(N)n1 (mixture of isomers)	Thiamine transporter ThiT	binding, ITC	–	–	8.41 µM

SMILES	target	test	test system	conditions	Kd
O=C(N/N=C/c1ncc[nH]1)c1cccs1	dxs	binding, SPR	–	–	8 µM
CC(=O)N[C@@H]1[C@@H](O[C@@H]2O[C@H](C(=O)O)[C@@H](O[C@@H]3O[C@H](COS(=O)(=O)O)[C@@H](OS(=O)(=O)O)[C@H](O[C@@H]4O[C@H](C(=O)O)[C@@H](O[C@@H]5O[C@H](COS(=O)(=O)O)[C@@H](OS(=O)(=O)O)[C@H](O[C@@H]6O[C@H](C(=O)O)[C@@H](OS(=O)(=O)O)[C@H](OS(=O)(=O)O)[C@H]6OS(=O)(=O)O)[C@H]5NC(C)=O)[C@H](OS(=O)(=O)O)[C@H]4OS(=O)(=O)O)[C@H]3NC(C)=O)[C@H](OS(=O)(=O)O)[C@H]2OS(=O)(=O)O)[C@H](OS(=O)(=O)O)[C@@H](COS(=O)(=O)O)O[C@H]1N=[N+]=[N-]	CXCL12 (Homo sapiens, UniProt P48061)	ligand displacement, FP	–	–	0.75 µM
C=CC(=O)N1C[C@H](C)N(c2nc(OC[C@@]34CCCN3C[C@H](F)C4)nc3c(F)c(-c4ccc(F)c5sc(N)c(C#N)c45)c(C(F)(F)F)cc23)C[C@H]1C	CDK8 (Homo sapiens, UniProt P49336)	binding, competition with immobilised ligand	–	–	4.6 µM
CNC(=N)NCCC[C@H](NC(=O)[C@H](C)N)C(=O)N[C@H](C(=O)N[C@@H](CCCCN)C(=O)N[C@@H](CCC(N)=O)C(=O)N[C@H](C(=O)N[C@@H](C)C(=O)N[C@@H](CCCNC(=N)N)C(=O)N[C@@H](CCCCN)C(=O)N[C@@H](CO)C(=O)O)[C@@H](C)O)[C@@H](C)O	Autoimmune regulator, PHD1 domain (AIRE, Homo sapiens, UniProt O43918)	binding, isothermal titration calorimetry	–	pH 7.2, 23 °C, together with: AIRE PHD1 wild type	199 ± 12.4 µM
Cc1ccc(CCN2COc3c(cc(F)c4cccnc34)C2)cc1	Large ribosomal subunit protein uL10 (rplJ, Escherichia coli, UniProt P0A7J3)	binding	–	–	6.7 µM
NC(Cc1ccc(F)cc1F)C(=O)O (racemic)	grsA (Aneurinibacillus migulanus, UniProt P0C061)	binding, ITC	–	–	420 µM
COC(=O)c1c(O)cc(O)c(Cl)c1CCc1ccccc1Cc1ccccc1	HSP90AA1 (Homo sapiens, UniProt P07900)	ligand displacement, FP	–	–	20.7 µM
Nc1ncc(/C=N/NC(=O)Cc2c[nH]c3ccccc23)cn1	dxs	binding, SPR	–	–	270 µM
C[C@H](CCC(=O)NCc1ccccc1)[C@H]1CC[C@H]2[C@@H]3CC[C@@H]4CC(=O)CC[C@]4(C)[C@H]3CC[C@]12C	RORC	binding, MST	–	–	0.724 µM
COCCOC(=O)Nc1ccc2c(c1)c(Cc1ccc(C(=O)NS(=O)(=O)c3ccc(C(F)(F)F)cc3)cc1OC)cn2C	Tumor necrosis factor receptor superfamily member 1A, extracellular domain (Homo sapiens, UniProt P19438)	binding, 19F NMR	PBS	pH 7.4	12 µM
[3H]CC([3H])C(=O)NCc1cc(C(=O)NCCN2CCC(N3CCC(n4c(=O)[nH]c5ccccc54)CC3)CC2)cc(C(=O)NCCN2CCN(CCCCC3CCN(CC(=O)N4c5ccccc5NC(=O)c5ccccc54)CC3)CC2)c1 (stereo not shown)	CHRM2 (Homo sapiens, UniProt P08172)	binding, radioligand	–	–	8.1e-05 µM
Cc1oc2c(O)c3c(c(O)c2c1C(=O)N1CCC(N)C1)C(=O)c1ccccc1C3=O (stereo not shown)	AURKA	binding, tryptophan fluorescence quenching	–	pH 7.5, 25 °C, AurA 3.0 µM	61 ± 13.7 µM
C[C@@H](NC(=O)[C@H](Cc1ccccc1)NC(=O)[C@H](CCCNC(N)=O)NC(=O)CNC(=O)[C@@H]1C[C@@H](O)CN1C(=O)[C@H](CC1CCCCC1)NC(=O)[C@H](Cc1ccc(O)cc1)NC(=O)CCCCCNC(=O)CCC(C(=O)O)N1CCN(CC(=O)O)CCN(CC(=O)O)CC1)C(=O)N1Cc2ccccc2C[C@H]1C(=O)N[C@@H](CO)C(=O)O (stereo partly shown) [copper-64 labelled]	Chemerin-like receptor 1 (Mus musculus, UniProt P97468)	binding, radioligand	HeLa transfected	1 h	0.192 µM
N=C(CCl)NCCNc1c2c(c(NCCNC(=N)CCl)c3sccc13)C(=O)c1ccccc1C2=O	AURKA	binding, BLI	–	–	29.9 µM
COc1cc(C2CC(=O)Nc3nc(N)[nH]c(=O)c32)ccc1O (stereo not shown)	uncharacterized protein (Leishmania donovani, UniProt A0A3Q8IA09)	competitive ITC	–	together with: aspartate 60 µM	5.2 µM

For quick reference, copied from above:
SMILES	target	test	test system	conditions	Kd
NC(Cc1ccc(F)cc1F)C(=O)O (racemic)	grsA (Aneurinibacillus migulanus, UniProt P0C061)	binding, ITC	–	–	420 µM
COCCOC(=O)Nc1ccc2c(c1)c(Cc1ccc(C(=O)NS(=O)(=O)c3ccc(C(F)(F)F)cc3)cc1OC)cn2C	Tumor necrosis factor receptor superfamily member 1A, extracellular domain (Homo sapiens, UniProt P19438)	binding, 19F NMR	PBS	pH 7.4	12 µM
Nc1ncc(/C=N/NC(=O)Cc2c[nH]c3ccccc23)cn1	dxs	binding, SPR	–	–	270 µM
